Assay results from different studies.
Every numbered part comes from another study and shows a few of its results, in no order.

Block 1
Target: RNA binding protein fox-1 homolog 2, RRM domain, GST-SBP tag (RBFOX2, Homo sapiens, UniProt O43251-10, residues 100-194)
Technique: RNA Bind-n-Seq
Form: RNA
Matrix: in vitro
Tested at: 365 nM
Setting: natural RNA segment, single round, ends assumed
Reference: no-protein control
Direction: higher = stronger binding
Endpoint: RBNS enrichment (R)
Construct (chain): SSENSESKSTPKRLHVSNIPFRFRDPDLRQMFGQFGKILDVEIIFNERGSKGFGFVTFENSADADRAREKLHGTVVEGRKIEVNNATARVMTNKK
Strand = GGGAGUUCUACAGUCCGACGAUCGCACUGCUGAAGUUUUCACAAGUGGAGUGUUGAAGGUGAAUCAGUAGUCUUUGGAGUCUACAAGUGACUGUCAUUUUAAGCAACUCAUUAAAUAUUGGUUCAUUUUUUUUUGGAAUUCUCGGGUGCCAA; value = 0.56
Strand = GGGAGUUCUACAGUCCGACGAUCGUCAUGGGACCUCAGUAACGAGGACCCCUAAUUUAUAAAGUACCAGAAAUGUGGGGAAGAAAGCAAUUUGAGCAGUAUGUAGCCUACUCACAUGGGCUCUUUUUCAGGUUUGGAAUUCUCGGGUGCCAA; value = 0.807
Strand = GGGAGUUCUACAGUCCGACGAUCCCUCUGUAAGAUACUGAUUCUUCCUGGGGCCAGUAUUACCUUGUAUGCAAAUAUUACAUAUGAUGGGUGCAUUGUCAGAGGGAAAAUAUAUGUGUAUGUACACAUGUGUAUGGAAUUCUCGGGUGCCAA; value = 0.331
Strand = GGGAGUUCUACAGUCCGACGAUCGAGAGAAGCCAGAACAAAUUCCGCUGGUUAUAUUUUCUACCUUGUAAACAGGUCAGCACCCCCACUACUCUUUUUAAAAUCACUUUAGUGAUGGAGAUGUCUUGCAAAGAUGGAAUUCUCGGGUGCCAA; value = 2.3
Strand = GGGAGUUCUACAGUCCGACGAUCCACCCCGUCUGUGUCCCCCAUGAAGGCAGCUGAGCUUUCAGAGCUGGGUUCAAAAAAAAAAAUUCCAGUGUCUGUAUACAGGAGCACUUGGUUUGGGGGUUCAGGCUCUAUGGAAUUCUCGGGUGCCAA; value = 0.33
Strand = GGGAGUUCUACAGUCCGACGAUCUUCCACUGUGGGAGAAUACCCAUGGAAUAAGAUAAAAAAUUAAUUCCACACCCUAGUGUGUGUAAGUUCCUCGCUCAUAGGAAAUGCAACAGUUUGAGGGAGCAUUGCCCUGGAAUUCUCGGGUGCCAA; value = 0.89
Strand = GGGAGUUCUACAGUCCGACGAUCCUCAGGCCCGCCUCCAACCCCGAGACCUCAGCUGUGCCUUAUCACAGAGAUGGCGCUGCAGGGCCCAGAUGUGUGACUGGGCAUGUUUCCAGGAAAGAGGCCAUCUCUUGUGGAAUUCUCGGGUGCCAA; value = 1.78
Strand = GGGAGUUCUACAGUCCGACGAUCCACACUUGGCCCUCUUCCUCUCCAAAGCGCCAGAACCUCCUUCUCUUUGGAGAAUGGGGAGGCCUCUUGGAGACACAGAGGGUUUCACCUUGGAUGACCUCUAGAGAAAUUGGAAUUCUCGGGUGCCAA; value = 0.226
Strand = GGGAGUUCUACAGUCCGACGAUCGUUUUGCUGGCACGAAAGAAACUAGAUGGAAAUAUAUGUAAUUCUCUCAUAUUUAAAAACGUAAUCUCUUCUCUUAGAAGUAUAGAUCAUUUUGAAACUUAAUGUACUACUGGAAUUCUCGGGUGCCAA; value = 1.22

Block 2
Target: Fragile X messenger ribonucleoprotein 1, C-terminal low-complexity region (Fmr1, Mus musculus, UniProt P35922)
Technique: RNA Bind-n-Seq
Form: RNA
Matrix: in vitro
Tested at: 200 nM
Setting: whole 134-nt RNA, ends assumed
Added: 150 mM LiCl
Reference: input library
Direction: higher = stronger binding
Endpoint: log2 enrichment
Library: 7-deaza-guanosine replaces G
Strand = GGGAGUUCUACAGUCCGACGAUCUCAAGUCCUGUGCUACACAUCGUAUGUACCGAAUCGGAAAAAAAGGUGGUUUGGAAAGUAUUAUGUUACGCCGUUCGGAUCUGCACUUCCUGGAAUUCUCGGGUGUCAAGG; value = -1.73
Strand = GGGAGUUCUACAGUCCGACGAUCAAGUCCUGUGCUACACAUCGUAUGUACCGAAUCGGGCCCCGGGCCCCGGGCCCCGGAAAGUAUUAUGUUACGCCGUUCGGAUCUGCACUUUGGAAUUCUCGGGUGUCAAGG; value = -1.63
Strand = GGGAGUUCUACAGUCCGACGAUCCACAGACAACACGCACCCACACAGACACAGAGGGAAGGGGUUGGGAUGGGGACAGGGUGCACAGCACGGCGGGGUAGGACCCCAGCCCCUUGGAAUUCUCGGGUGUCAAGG; value = -0.362
Strand = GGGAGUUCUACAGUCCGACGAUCUAACUUUAGAGGAGGAUCUGAUGGAUAUGGCAGUAGACGUGGAUUUGGGGAUGGCUAUAAUGGGUAUGGAGGAGGACCUGGAGGUGGCAAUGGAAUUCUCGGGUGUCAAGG; value = 0.712
Strand = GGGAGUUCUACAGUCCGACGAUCCAAGUCCUGUGCUACACAUCGUAUGUACCGAAUCGGGGAGGGGAAAGGGGAGGGGAAAGUAUUAUGUUACGCCGUUCGGAUCUGCACUUCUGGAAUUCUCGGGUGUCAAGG; value = 0.526
Strand = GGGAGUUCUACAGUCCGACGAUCUGUGCUACACAUCGUAUGUACCGAAUCGGGGCCCCCCCGGGCCCCCCCGGGGCCCCCCCGGGAAAGUAUUAUGUUACGCCGUUCGGAUCUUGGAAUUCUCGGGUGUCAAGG; value = -1.71
Strand = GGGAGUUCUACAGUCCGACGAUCUGGCCCUGGUGGCAUGCGGGGAGGAAGAGGUGGCCUCAUGGAUCGUGGUGGUCCCGGUGGAAUGUUCAGAGGUGGCCGUGGUGAAGACAGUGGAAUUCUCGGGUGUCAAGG; value = -0.932
Strand = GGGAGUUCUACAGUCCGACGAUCCAAGUCCUGUGCUACACAUCGUAUGUACCGAAUCGGAAAGGAAAAAAAGGAAAGGAAAGUAUUAUGUUACGCCGUUCGGAUCUGCACUUCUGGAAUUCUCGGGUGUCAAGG; value = -0.687
Strand = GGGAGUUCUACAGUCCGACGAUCAGUCCUGUGCUACACAUCGUAUGUACCGAAUCGGUUUUUUUGGAAAAAGGAAAAAGGAAAGUAUUAUGUUACGCCGUUCGGAUCUGCACUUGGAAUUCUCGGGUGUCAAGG; value = -3.25
Strand = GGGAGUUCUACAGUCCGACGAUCCCUCAAGUCCUGUGCUACACAUCGUAUGUACCGAAUCGGUGGGGUGGUGGGGAAAGUAUUAUGUUACGCCGUUCGGAUCUGCACUUCCAGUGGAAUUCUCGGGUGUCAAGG; value = -0.23
Strand = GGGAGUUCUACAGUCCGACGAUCCCUCAAGUCCUGUGCUACACAUCGUAUGUACCGAAUCGGAAAAAGGAGGUGGAAAGUAUUAUGUUACGCCGUUCGGAUCUGCACUUCCAGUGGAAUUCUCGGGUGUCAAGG; value = -0.126

Block 3
Target: Prothrombin, mature alpha-thrombin (F2, Homo sapiens, UniProt P00734)
Technique: aptamer microarray, sandwich
Form: DNA with 2'F-ANA
Matrix: in vitro
Tested at: 200 nM
Setting: whole 15-mer aptamer, many near background
Added: Cy3 exosite-II aptamer, 400 nM
Direction: higher = stronger binding
Endpoint: mean fluorescence intensity
Strand: GGTTGGTGTGGTTGG
Modification = 2'F-ANA at 1 2 3 5 6 7 9; value = 61.6 a.u.
Modification = 2'F-ANA at 2 5 6 7 10 11 13 14 15; value = 48.5 a.u.
Modification = 2'F-ANA at 1 3 7 8 9 10 11 13 15; value = 79.3 a.u.
Modification = 2'F-ANA at 1 2 3 4 5 12 13 15; value = 100 a.u.
Modification = 2'F-ANA at 1 5 6; value = 54.1 a.u.
Modification = 2'F-ANA at 1 3 4 5 7 9 12 14 15; value = 50.4 a.u.
Modification = 2'F-ANA at 9 11 12 14 15; value = 205 a.u.
Modification = 2'F-ANA at 1 3 9 13; value = 234 a.u.
Modification = 2'F-ANA at 1 3 5 6 12 15; value = 115 a.u.
Modification = 2'F-ANA at 2 3 5 6 9 11 14 15; value = 50.1 a.u.
Modification = 2'F-ANA at 3 6 10 12 15; value = 577 a.u.
Modification = 2'F-ANA at 1 4 6 9 10 11 12 13 15; value = 56 a.u.
Modification = 2'F-ANA at 2 5 6 7 8 9 11 12 15; value = 125 a.u.
Modification = 2'F-ANA at 1 3 4 6 10 15; value = 59.6 a.u.
Modification = 2'F-ANA at 1 3 4 7 11 12 14 15; value = 84.9 a.u.
Modification = 2'F-ANA at 1 3 4 5 8 9 10 15; value = 45.2 a.u.
Modification = 2'F-ANA at 2 3 5 6 7 9 13; value = 63.8 a.u.
Modification = 2'F-ANA at 1 4 5 11 15; value = 54.7 a.u.
Modification = 2'F-ANA at 4 7 9 11 12 15; value = 418 a.u.
Modification = 2'F-ANA at 1 2 3 4 7 9 12 15; value = 334 a.u.
Modification = 2'F-ANA at 2 3 4 7 8 10 13; value = 250 a.u.
Modification = 2'F-ANA at 1 2 4 6 11 15; value = 91.4 a.u.
Modification = 2'F-ANA at 5 6 7 8 9 10 11 13 15; value = 51.6 a.u.
Modification = 2'F-ANA at 1 2 3 5 6 7 13; value = 54.9 a.u.
Modification = 2'F-ANA at 1 2 3 7 8 10 12 13; value = 96.3 a.u.

Block 4
Target: Sal-like protein 4, full length isoform B (SALL4, Homo sapiens, UniProt Q9UJQ4-2, residues 1-616)
Technique: universal PBM
Form: double-stranded DNA, one strand shown
Matrix: in vitro
Tested at: not given
Setting: 8-mer, flanks averaged, mean of replicates
Direction: higher = stronger binding
Endpoint: E-score
Construct (chain): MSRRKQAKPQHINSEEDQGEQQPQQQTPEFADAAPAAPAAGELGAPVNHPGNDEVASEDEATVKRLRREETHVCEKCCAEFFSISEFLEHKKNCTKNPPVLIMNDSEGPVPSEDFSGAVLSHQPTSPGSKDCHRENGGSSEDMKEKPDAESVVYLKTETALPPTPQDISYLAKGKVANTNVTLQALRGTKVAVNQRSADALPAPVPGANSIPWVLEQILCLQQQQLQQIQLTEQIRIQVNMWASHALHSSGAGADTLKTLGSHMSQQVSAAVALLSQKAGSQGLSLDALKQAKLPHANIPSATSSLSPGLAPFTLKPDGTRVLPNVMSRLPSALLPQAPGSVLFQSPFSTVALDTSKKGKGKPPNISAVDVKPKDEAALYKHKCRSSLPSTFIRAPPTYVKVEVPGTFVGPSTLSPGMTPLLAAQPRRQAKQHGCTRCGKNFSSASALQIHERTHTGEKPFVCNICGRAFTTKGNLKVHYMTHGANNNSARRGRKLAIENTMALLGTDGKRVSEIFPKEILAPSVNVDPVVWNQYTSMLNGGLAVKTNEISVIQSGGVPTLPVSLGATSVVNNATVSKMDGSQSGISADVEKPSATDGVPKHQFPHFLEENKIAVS
Strand = GATTCACA; value = 0.0188
Strand = AATAGCAT; value = 0.232
Strand = ACATCCGG; value = -0.0802
Strand = ATCTTCCC; value = -0.0342
Strand = ATGTCAAT; value = 0.243
Strand = ACTTATGC; value = 0.186
Strand = ACAAGACA; value = 0.145
Strand = AAAGGTGA; value = 0.123
Strand = CTGAAAGA; value = 0.0248
Strand = TCATTGCA; value = 0.0639
Strand = AGATCACC; value = -0.0706
Strand = CAAATCGA; value = 0.109
Strand = GAAGCTAA; value = -0.0262
Strand = AGTGCGAT; value = 0.0127
Strand = AACCGTAA; value = 0.00733
Strand = GCAACGCC; value = -0.203
Strand = ACCATTCC; value = 0.0127
Strand = CTGGACTA; value = -0.135
Strand = GACGCACA; value = -0.0107
Strand = CTGGATGC; value = -0.318
Strand = AGTCGACT; value = 0.159
Strand = CACTACTG; value = -0.0207
Strand = ATCTTGTA; value = 0.203
Strand = AGCTGGCA; value = -0.253
Strand = CCCTAAGG; value = -0.171
